# Assay results collected from several papers.
# Lines come from different studies, so protocols differ. “And” joins repeats or separate records; there may be more than shown. Numbers after ± are the reported error. Primed or numbered codes have the meaning given here. Where no end group is shown, it is not given here. No end group written: not given here. [ ]: non-standard residue; d: D form. *: point of attachment.
# B1: UGT1A9 (Homo sapiens, UniProt O60656); chain GKLLVVPMDGSHWFTMRSVVEKLILRGHEVVVVMPEVSWQLGRSLNCTVKTYSTSYTLEDLDREFKAFAHAQWKAQVRSIYSLLMGSYNDIFDLFFSNCRSLFKDKKLVEYLKESSFDAVFLDPFDNCGLIVAKYFSLPSVVFARGILCHYLEEGAQCPAPLSYVPRILLGFSDAMTFKERVRNHIMHLEEHLLCHRFFKNALEIASEILQTPVTEYDLYSHTSIWLLRTDFVLDYPKPVMPNMIFIGGINCHQGKPLPMEFEAYINASGEHGIVVFSLGSMVSEIPEKKAMAIADALGKIPQTVLWRYTGTRPSNLANNTILVKWLPQNDLLGHPMTRAFITHAGSHGVYESICNGVPMVMMPLFGDQMDNAKRMETKGAGVTLNVLEMTSEDLENALKAVINDKSYKENIMRLSSLHKDRPVEPLDLAVFWVEFVMRHKGAPHLRPAAHDLTWYQYHSLDVIGFLLAVVLTVAFITFKCCAYGYRKCLGKKGRVKKAHKSKTH
# B2: RbgA 1-282 (Bacillus subtilis, UniProt O31743); chain MTIQWFPGHMAKARREVTEKLKLIDIVYELVDARIPMSSRNPMIEDILKNKPRIMLLNKADKADAAVTQQWKEHFENQGIRSLSINSVNGQGLNQIVPASKEILQEKFDRMRAKGVKPRAIRALIIGIPNVGKSTLINRLAKKNIAKTGDRPGITTSQQWVKVGKELELLDTPGILWPKFEDELVGLRLAVTGAIKDSIINLQDVAVFGLRFLEEHYPERLKERYGLDEIPEDIAELFDAIGEKRGCLMSGGLINYDKTTEVIIRDIRTEKFGRLSFEQPTM
# B3: HSPB5 (Homo sapiens, UniProt P02511); sequence looked up; chain MDIAIHHPWIRRPFFPFHSPSRLFDQFFGEHLLESDLFPTSTSLSPFYLRPPSFLRAPSWFDTGLSEMRLEKDRFSVNLDVKHFSPEELKVKVLGDVIEVHGKHEERQDEHGFISREFHRKYRIPADVDPLTITSSLSSDGVLTVNGPRKQVSGPERTIPITREEKPAVTAAPKK
# B4: NLRP3 742-1036 (Homo sapiens, UniProt Q96P20); sequence looked up; chain SLTELDLSDNSLGDPGMRVLCETLQHPGCNIRRLWLGRCGLSHECCFDISLVLSSNQKLVELDLSDNALGDFGIRLLCVGLKHLLCNLKKLWLVSCCLTSACCQDLASVLSTSHSLTRLYVGENALGDSGVAILCEKAKNPQCNLQKLGLVNSGLTSVCCSALSSVLSTNQNLTHLYLRGNTLGDKGIKLLCEGLLHPDCKLQVLELDNCNLTSHCCWDLSTLLTSSQSLRKLSLGNNDLGDLGVMMFCEVLKQQSCLLQNLGLSEMYFNYETKSALETLQEEKPELTVVFEPSW
# B5: metQ residues 17-271 (Escherichia coli); chain SLALVGCGQDEKDPNHIKVGVIVGAEQQVAEVAQKVAKDKYGLDVELVTFNDYVLPNEALSKGDIDANAFQHKPYLDQQLKDRGYKLVAVGNTFVYPIAGYSKKIKSLDELQDGSQVAVPNDPTNLGRSLLLLQKVGLIKLKDGVGLLPTVLDVVENPKNLKIVELEAPQLPRSLDDAQIALAVINTTYASQIGLTPAKDGIFVEDKESPYVNLIVTREDNKDAENVKKFVQAYQSDEVYEAANKVFNGGAVKGW
# B6: eIF4A Q186C/G370C (Saccharomyces cerevisiae, UniProt P10081); Alexa555/Alexa647; sequence looked up; chain MSEGITDIEESQIQTNYDKVVYKFDDMELDENLLRGVFGYGFEEPSAIQQRAIMPIIEGHDVLAQAQSGTGKTGTFSIAALQRIDTSVKAPQALMLAPTRELALQIQKVVMALAFHMDIKVHACIGGTSFVEDAEGLRDAQIVVGTPGRVFDNIQRRRFRTDKIKMFILDEADEMLSSGFKEQIYCIFTLLPPTTQVVLLSATMPNDVLEVTTKFMRNPVRILVKKDELTLEGIKQFYVNVEEEEYKYECLTDLYDSISVTQAVIFCNTRRKVEELTTKLRNDKFTVSAIYSDLPQQERDTIMKEFRSGSSRILISTDLLARGIDVQQVSLVINYDLPANKENYIHRIGRGGRFGRKGVAINFVTNEDVCAMRELEKFYSTQIEELPSDIATLLN
# B7: Apoa5 (Mus musculus, UniProt Q8C7G5); sequence looked up; chain RKSLWDYFSQNSWSKGVMGQPQKLAQENLKGSFEQDLYNMNNYLEKLGPLRGPGKEPPLLAQDPEGIRKQLQQELGEVSSRLEPYMAAKHQQVGWNLEGLRQQLKPYTAELMEQVGLSVQELQEQLRVVGEDTKAQLLGGVDEALNLLQDMQSRVLHHTDRVKELFHPYAERLVTGIGHHVQELHRSVAPHAAASPARLSRCVQTLSHKLTRKAKDLHTSIQRNLDQLRDELSAFIRVSTDGAEDGDSLDPQALSEEVRQRLQAFRHDTYLQIAAFTQAIDQETEEIQHQLAPPPPSHSAFAPELGHSDSNKALSRLQSRLDDLWEDIAYGLQDQGHSHLSDPEGHSG
# B8: Reln 1948-2662 (Mus musculus, UniProt Q60841); chain DGNNLNNPVLLLDTFDFGPREDNWFFYPGGNIGLYCPYSSKGAPEEDSAMVFVSNEVGEHSITTRDLSVNENTIIQFEINVGCSTDSSSADPVRLEFSRDFGATWHLLLPLCYHSSSLVSSLCSTEHHPSSTYYAGTTQGWRREVVHFGKLHLCGSVRFRWYQGFYPAGSQPVTWAIDNVYIGPQCEEMCYGHGSCINGTKCICDPGYSGPTCKISTKNPDFLKDDFEGQLESDRFLLMSGGKPSRKCGILSSGNNLFFNEDGLRMLVTRDLDLSHARFVQFFMRLGCGKGVPDPRSQPVLLQYSLNGGLSWSLLQEFLFSNSSNVGRYIALEMPLKARSGSTRLRWWQPSENGHFYSPWVIDQILIGGNISGNTVLEDDFSTLDSRKWLLHPGGTKMPVCGSTGDALVFIEKASTRYVVTTDIAVNEDSFLQIDFAASCSVTDSCYAIELEYSVDLGLSWHPLVRDCLPTNVECSRYHLQRILVSDTFNKWTRITLPLPSYTRSQATRFRWHQPAPFDKQQTWAIDNVYIGDGCLDMCSGHGRCVQGSCVCDEQWGGLYCDEPETSLPTQLKDNFNRAPSNQNWLTVSGGKLSTVCGAVASGLALHFSGGCSRLLVTVDLNLTNAEFIQFYFMYGCLITPSNRNQGVLLEYSVNGGITWNLLMEIFYDQYSKPGFVNILLPPDAKEIATRFRWWQPRHDGLDQNDWAIDNVLIS
# B9: Sema6a 19-571 I322E (Mus musculus, UniProt O35464); chain GFPEDSEPISISHGNYTKQYPVFVGHKPGRNTTQRHRLDIQMIMIMNRTLYVAARDHIYTVDIDTSHTEEIYCSKKLTWKSRQADVDTCRMKGKHKDECHNFIKVLLKKNDDTLFVCGTNAFNPSCRNYRVDTLETFGDEFSGMARCPYDAKHANIALFADGKLYSATVTDFLAIDAVIYRSLGDSPTLRTVKHDSKWLKEPYFVQAVDYGDYIYFFFREIAVEYNTMGKVVFPRVAQVCKNDMGGSQRVLEKQWTSFLKARLNCSVPGDSHFYFNILQAVTDVIRINGRDVVLATFSTPYNSEPGSAVCAYDMLDIANVFTGRFKEQKSPDSTWTPVPDERVPKPRPGCCAGSSSLEKYATSNEFPDDTLNFIKTHPLMDEAVPSIINRPWFLRTMVRYRLTKIAVDNAAGPYQNHTVVFLGSEKGIILKFLARIGSSGFLNGSLFLEEMNVYNPEKCSYDGVEDKRIMGMQLDRASGSLYVAFSTCVIKVPLGRCERHGKCKKTCIASRDPYCGWVRESGSCAHLSPLSRLTFEQDIERGNTDGLGDCHNS
# UniProt P26447, sequence (whole entry, looked up): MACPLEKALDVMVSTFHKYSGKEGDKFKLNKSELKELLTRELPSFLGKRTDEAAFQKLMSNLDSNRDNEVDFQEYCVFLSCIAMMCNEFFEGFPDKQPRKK
# UniProt P62258, sequence (whole entry, looked up): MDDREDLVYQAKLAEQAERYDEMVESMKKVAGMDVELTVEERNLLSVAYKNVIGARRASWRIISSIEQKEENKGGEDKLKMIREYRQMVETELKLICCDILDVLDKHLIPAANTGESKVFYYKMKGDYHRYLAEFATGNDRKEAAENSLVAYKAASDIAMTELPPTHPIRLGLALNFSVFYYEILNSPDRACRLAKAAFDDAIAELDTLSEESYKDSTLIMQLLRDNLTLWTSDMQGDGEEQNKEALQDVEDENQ
# UniProt P70207, sequence (whole entry, unmodified, looked up): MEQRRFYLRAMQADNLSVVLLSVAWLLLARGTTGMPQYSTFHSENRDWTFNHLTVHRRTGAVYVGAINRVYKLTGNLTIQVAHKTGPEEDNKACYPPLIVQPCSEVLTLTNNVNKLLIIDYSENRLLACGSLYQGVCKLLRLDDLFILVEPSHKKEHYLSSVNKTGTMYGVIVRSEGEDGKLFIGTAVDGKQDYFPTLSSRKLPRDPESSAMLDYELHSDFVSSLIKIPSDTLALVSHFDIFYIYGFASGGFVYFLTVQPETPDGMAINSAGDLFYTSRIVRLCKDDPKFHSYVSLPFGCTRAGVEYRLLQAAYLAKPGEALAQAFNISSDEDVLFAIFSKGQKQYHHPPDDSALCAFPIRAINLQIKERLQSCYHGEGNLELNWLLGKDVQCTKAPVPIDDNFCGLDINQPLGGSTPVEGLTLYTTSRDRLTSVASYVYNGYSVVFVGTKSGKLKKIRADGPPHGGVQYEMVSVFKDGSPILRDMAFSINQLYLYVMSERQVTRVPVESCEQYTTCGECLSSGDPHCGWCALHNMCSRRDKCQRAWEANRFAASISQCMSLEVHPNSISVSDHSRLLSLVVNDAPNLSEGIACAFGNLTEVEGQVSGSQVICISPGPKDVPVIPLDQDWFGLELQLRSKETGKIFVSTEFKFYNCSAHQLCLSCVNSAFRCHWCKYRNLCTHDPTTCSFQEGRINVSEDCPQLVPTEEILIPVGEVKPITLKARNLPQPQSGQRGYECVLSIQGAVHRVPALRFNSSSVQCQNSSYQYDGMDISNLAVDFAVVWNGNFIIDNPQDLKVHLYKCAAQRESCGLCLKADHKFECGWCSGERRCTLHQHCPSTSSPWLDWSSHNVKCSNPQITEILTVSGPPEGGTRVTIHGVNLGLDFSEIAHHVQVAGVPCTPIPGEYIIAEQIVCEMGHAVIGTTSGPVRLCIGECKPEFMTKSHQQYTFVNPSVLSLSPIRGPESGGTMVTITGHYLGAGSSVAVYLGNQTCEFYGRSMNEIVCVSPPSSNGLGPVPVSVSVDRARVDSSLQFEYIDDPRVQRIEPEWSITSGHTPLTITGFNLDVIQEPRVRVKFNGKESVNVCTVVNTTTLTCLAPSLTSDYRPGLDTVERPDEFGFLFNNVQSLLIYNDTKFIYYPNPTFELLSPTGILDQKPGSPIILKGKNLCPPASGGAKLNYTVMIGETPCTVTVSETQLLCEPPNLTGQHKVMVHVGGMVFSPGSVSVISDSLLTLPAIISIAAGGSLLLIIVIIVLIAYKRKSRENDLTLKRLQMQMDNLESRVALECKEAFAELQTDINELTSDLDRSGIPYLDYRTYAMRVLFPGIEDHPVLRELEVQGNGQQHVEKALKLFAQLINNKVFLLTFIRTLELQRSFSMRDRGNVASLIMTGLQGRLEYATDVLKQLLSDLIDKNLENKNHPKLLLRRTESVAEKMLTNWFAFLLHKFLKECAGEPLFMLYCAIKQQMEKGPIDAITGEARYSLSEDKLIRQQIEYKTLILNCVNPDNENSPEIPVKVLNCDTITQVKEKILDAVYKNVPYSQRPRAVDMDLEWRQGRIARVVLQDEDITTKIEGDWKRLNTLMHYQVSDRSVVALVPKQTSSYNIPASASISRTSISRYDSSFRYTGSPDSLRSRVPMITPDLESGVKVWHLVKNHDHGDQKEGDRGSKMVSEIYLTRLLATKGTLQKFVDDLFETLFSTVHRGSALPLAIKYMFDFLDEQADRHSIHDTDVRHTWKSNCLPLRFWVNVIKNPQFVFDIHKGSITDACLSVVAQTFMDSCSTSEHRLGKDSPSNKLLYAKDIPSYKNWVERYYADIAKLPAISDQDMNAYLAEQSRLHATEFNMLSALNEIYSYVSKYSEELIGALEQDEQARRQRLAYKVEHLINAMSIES
# UniProt Q99523, sequence (whole entry, looked up): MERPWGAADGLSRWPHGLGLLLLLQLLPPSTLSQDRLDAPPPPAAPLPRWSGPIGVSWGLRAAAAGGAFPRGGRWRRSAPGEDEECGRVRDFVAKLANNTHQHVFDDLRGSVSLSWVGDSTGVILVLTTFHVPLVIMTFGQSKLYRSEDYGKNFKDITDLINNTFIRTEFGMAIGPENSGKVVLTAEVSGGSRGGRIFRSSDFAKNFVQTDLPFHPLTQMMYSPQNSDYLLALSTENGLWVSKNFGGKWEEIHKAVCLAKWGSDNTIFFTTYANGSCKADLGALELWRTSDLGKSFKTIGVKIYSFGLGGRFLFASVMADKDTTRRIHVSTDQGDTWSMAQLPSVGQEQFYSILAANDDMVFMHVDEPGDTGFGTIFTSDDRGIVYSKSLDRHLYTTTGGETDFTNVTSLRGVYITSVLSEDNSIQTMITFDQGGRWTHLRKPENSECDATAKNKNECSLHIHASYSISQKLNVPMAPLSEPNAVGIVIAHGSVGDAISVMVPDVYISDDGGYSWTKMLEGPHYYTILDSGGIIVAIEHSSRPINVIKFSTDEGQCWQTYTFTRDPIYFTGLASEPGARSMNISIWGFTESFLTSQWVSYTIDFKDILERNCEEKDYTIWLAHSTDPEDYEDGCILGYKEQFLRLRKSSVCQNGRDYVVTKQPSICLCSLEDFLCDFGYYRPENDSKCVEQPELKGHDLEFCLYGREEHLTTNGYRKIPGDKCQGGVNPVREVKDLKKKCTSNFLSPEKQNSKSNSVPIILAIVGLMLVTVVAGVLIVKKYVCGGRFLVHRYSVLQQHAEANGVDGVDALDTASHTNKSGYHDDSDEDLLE
# UniProt P01127, sequence (whole entry, looked up): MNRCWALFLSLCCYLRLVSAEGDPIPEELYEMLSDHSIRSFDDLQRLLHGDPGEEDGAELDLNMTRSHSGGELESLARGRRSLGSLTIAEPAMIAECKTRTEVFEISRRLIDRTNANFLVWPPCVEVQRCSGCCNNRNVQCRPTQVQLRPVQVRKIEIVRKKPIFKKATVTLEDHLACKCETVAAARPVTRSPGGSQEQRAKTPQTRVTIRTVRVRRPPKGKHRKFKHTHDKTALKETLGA
# UniProt O14965, sequence (whole entry, looked up): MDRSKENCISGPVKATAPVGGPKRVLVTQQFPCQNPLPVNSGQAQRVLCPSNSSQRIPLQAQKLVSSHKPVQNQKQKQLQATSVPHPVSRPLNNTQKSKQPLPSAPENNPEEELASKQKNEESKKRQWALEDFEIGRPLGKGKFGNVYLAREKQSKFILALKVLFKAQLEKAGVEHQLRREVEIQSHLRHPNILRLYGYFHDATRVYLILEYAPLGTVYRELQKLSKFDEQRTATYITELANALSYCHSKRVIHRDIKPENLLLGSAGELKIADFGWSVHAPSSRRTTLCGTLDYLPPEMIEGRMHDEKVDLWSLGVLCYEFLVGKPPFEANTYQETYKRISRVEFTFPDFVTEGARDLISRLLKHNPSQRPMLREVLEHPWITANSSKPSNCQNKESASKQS
# UniProt P50524, sequence (whole entry, looked up): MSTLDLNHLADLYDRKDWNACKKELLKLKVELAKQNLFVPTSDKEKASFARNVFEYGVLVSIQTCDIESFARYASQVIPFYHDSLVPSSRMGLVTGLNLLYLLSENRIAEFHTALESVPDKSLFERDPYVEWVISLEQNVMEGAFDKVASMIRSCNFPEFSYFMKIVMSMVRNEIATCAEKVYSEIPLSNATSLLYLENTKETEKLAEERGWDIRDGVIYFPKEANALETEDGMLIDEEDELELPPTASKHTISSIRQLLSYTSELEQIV
# UniProt Q05397, sequence (whole entry, unmodified, looked up): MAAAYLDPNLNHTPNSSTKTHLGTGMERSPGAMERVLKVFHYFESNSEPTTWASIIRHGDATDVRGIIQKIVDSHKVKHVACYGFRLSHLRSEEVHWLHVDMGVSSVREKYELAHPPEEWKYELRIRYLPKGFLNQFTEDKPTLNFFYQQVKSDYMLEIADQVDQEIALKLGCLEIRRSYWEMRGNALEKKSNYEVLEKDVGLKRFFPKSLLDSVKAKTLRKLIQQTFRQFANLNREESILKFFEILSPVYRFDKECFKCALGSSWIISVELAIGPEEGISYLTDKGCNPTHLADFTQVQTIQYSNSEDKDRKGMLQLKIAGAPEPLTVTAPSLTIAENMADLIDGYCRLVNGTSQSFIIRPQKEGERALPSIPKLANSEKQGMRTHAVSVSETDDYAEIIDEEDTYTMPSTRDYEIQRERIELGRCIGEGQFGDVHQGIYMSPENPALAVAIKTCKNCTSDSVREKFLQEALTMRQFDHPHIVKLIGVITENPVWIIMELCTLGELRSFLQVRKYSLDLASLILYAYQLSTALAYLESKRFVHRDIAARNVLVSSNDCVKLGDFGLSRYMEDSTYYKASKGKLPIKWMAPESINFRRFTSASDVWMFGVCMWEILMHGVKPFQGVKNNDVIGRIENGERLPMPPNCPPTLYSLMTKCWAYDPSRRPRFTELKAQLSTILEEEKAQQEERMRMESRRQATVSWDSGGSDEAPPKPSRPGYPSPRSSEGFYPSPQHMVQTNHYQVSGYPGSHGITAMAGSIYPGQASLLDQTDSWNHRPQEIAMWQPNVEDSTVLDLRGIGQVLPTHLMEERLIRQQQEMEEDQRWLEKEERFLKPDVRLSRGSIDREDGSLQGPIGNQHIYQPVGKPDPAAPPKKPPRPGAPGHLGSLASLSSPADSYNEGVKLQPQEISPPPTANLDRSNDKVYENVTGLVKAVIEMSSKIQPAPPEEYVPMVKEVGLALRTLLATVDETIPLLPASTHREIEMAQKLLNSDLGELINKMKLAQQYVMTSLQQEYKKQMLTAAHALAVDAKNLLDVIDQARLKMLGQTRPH
Molecule,target or system,test,system,conditions,quantity,result
"{5‑TAMRA-Ahx}-NLSELDRLLDELN (PXN residues 141-153 L10D; N-terminal TAMRA, aminohexanoyl linker; 5‑TAMRA = CN(C)c1ccc2c(-c3ccc(C(=O)*)cc3C(=O)[O-])c3ccc(N(C)C)cc3[o+]c2c1; Ahx = NCCCCCC(=O)O)","PTK2 892-1052 K955A/E948A/R962A/I936D (Homo sapiens, UniProt Q05397)",fluorescence polarisation,peptide,,Kd,266000 nM
BACH1 BTB domain (Homo sapiens) (sequence not shown),FBXL17/SKP1 FBXL17 310-701 (Homo sapiens),BLI,,"30 °C, apparent",Kd,> 2400 nM
B1 (UGT1A9),O=c1cc(-c2ccccc2)oc2cc(O)cc(O)c12,steady-state kinetics,,"pH 7.4, 37 °C",Vmax,0.00454 µmol/min/mg
Palmitoyl-VVVAAAEEE-NH2 (peptide; palmitoyl tail; Palmitoyl = CCCCCCCCCCCCCCCC(=O)*),PDGFB homodimer (UniProt P01127),BLI,peptide,,Kd,461 nM
B2 (RbgA 1-282),"engA, Red-NHS dye label (Bacillus subtilis, UniProt P50743)",MST,,"1 h, pH 7.5, 25 °C, together with: GMPPNP 1 mM",Kd,37000 nM
SYK C-terminal SH2 domain,"CLEC1B fragment, pY7 (Homo sapiens)",SPR,,equilibrium Kd,Kd,2400 nM
B3 (HSPB5),BAG3 del87-101/del200-213 (UniProt O95817),flow cytometry,,apparent,Kd,> 50000 nM
B4 (NLRP3 742-1036),"PPM1A, RED-NHS dye label (Homo sapiens, UniProt P35813)",MST,,25 °C,Kd,882 nM
"AR[pT][Lys(Me3)]QTARKSTG (histone H3 2-13 (UniProt P68431); pT3, K4me3; pT = C[C@@H](OP(=O)(O)O)[C@H](N)C(=O)O; Lys(Me3) = C[N+](C)(C)CCCC[C@H](N)C(=O)O; sequence looked up)","BIRC5 1-142 (Homo sapiens, UniProt O15392)",ITC,peptide,pH 7.2,Kd,11500 ± 1000 nM
ARLYHSLLPAA (designed peptide),"YWHAE (Homo sapiens, UniProt P62258)",FP,peptide,,Kd,540 ± 10 nM
proNGF residues -121 to 118 three furin sites to alanine (Mus musculus),"SORT1 extracellular region 34-725 (Homo sapiens, UniProt Q99523)",SPR,,25 °C,Kd,770 nM
RRRRRRRC / CGSFPPWVQKTEV (peptide),"DLG4 309-422 (Homo sapiens, UniProt P78352)",SPR,peptide,,Kd,27.4 nM
"NSKQNLNVSLSDEMNEDFRSGSEAFDLIAQDEEEFNKEHQFIQEENIDAHN (CEP192 491-541 (Homo sapiens, UniProt Q8TEP8))","AURKA kinase domain 123-403, phosphorylated (Homo sapiens, UniProt O14965)",ITC,,,Kd,1900 nM
B5 (metQ residues 17-271),metN/metI E166Q (Escherichia coli),MST,,"pH 8.5, 25 °C, NaCl 100 mM, together with: ATP 1 mM",Kd,1100 ± 300 nM
"PTH E19A/E22A, fluorescein at Lys13","PTH1R (Homo sapiens, UniProt Q03431)",fluorescence polarisation,,,Kd,82 nM and 224 nM
{5FAM′}-DDTSRMEAVD (HSP90AA1 723-732 E730A (UniProt P07900); N-terminal 5-FAM; 5FAM′ = 5-carboxyfluorescein; sequence looked up),"STUB1 (Homo sapiens, UniProt Q9UNE7)",fluorescence polarisation,peptide,"pH 7.4, 25 °C, together with: 5-Fam tracer 20 nM",Kd,1700 ± 240 nM
B6 (eIF4A Q186C/G370C),"TIF3 (Saccharomyces cerevisiae, UniProt P34167)",single-molecule FRET,,apparent,Kd,2900 ± 1200 nM
"rpn10 (Schizosaccharomyces pombe, UniProt O94444)","rpn12 1-250, Oregon Green label (Schizosaccharomyces pombe, UniProt P50524)",fluorescence polarization,,"0-370 µM, 20 min, pH 7.4, 25 °C, NaCl 150 mM",Kd,17800 ± 2700 nM
B7 (Apoa5),ANGPTL3/ANGPTL8,SPR,,"pH 7.4, 25 °C, NaCl 150 mM, together with: CaCl2 4 mM",Kd,0.53 nM
KVGFFKRNRPPLEEDDEEGE (ITGA2B 989-1008 (Homo sapiens)),Myom1 fragment (Mus musculus),SPR,peptide,two-state model,Kd,248000 nM
B8 (Reln 1948-2662),"LRP8 ectodomain, lacking LA4-6 (Homo sapiens)",SPR,,"low calcium, steady-state affinity, together with: Ca2+ 3 µM",Kd,33 nM
B9 (Sema6a 19-571 I322E),"PlxnA2 35-703 (Mus musculus, UniProt P70207)",SPR,,"pH 7.5, 25 °C, NaCl 150 mM, equilibrium, monovalent",Kd,1300 nM
"S100A4, S-glutathionylated, QSY 35 on amines (Homo sapiens, UniProt P26447)","SRXN1 C99S, Alexa 546 label (Homo sapiens)",FRET,,"apparent, with Ca2+, together with: Ca2+",Kd,21 nM

# A few entries again:
Molecule,target or system,test,system,conditions,quantity,result
proNGF residues -121 to 118 three furin sites to alanine (Mus musculus),"SORT1 extracellular region 34-725 (Homo sapiens, UniProt Q99523)",SPR,,25 °C,Kd,770 nM
RRRRRRRC / CGSFPPWVQKTEV (peptide),"DLG4 309-422 (Homo sapiens, UniProt P78352)",SPR,peptide,,Kd,27.4 nM
"NSKQNLNVSLSDEMNEDFRSGSEAFDLIAQDEEEFNKEHQFIQEENIDAHN (CEP192 491-541 (Homo sapiens, UniProt Q8TEP8))","AURKA kinase domain 123-403, phosphorylated (Homo sapiens, UniProt O14965)",ITC,,,Kd,1900 nM
B5 (metQ residues 17-271),metN/metI E166Q (Escherichia coli),MST,,"pH 8.5, 25 °C, NaCl 100 mM, together with: ATP 1 mM",Kd,1100 ± 300 nM
